Experimental data from different studies.
Compare with care: the assays were run in different laboratories. Several values in a cell are separate wells, animals, samples, runs or records. ± gives the spread as reported.

Structure (SMILES) | cell line | assay | setting | scale | measurement | result
Cc1cnc(NC(=O)c2cccc([C@@H]3C[C@H]3NC3CCC3)c2)s1 | SET-2 | cell growth, CellTiter-Glo | 1 µM, 7 d | baseline: vehicle | relative growth | 101% and 109% and 94.6%
Fc1ccc(Nc2nc(NC3CCCCC3)c3ccccc3n2)cc1F | transfected HEK293 cells | β-arrestin2 recruitment, negative allosteric modulator, BRET | 30 min pre-incubation, β1AR ECL1/2 chimera, added: isoproterenol 1 µM | – | pIC50 | 5.7
CN1CCCNC(=O)c2cccc(c2)C(=O)NCCCN(C)CCCNc2cccc3c2C(=O)c2cccc(c2C3=O)NCCC1 | SAS | RNA-Seq, measured: MUTYH mRNA | 1 µM, 6 h | baseline: untreated cells | log2 fold change | 1.07
C=CC(=O)N1[C@H](c2ccc3c(c2)OCO3)c2[nH]c3ccccc3c2C[C@@H]1C(=O)NC1CC1 | rat DRG neurons | – | 0.04115 µM, 48 h, added: vincristine 40 nM | – | mean neuron degeneration | 75%
O=C(Nc1ccc(Cl)c(C(F)(F)F)c1)C1(C(=O)Nc2ccc3c(/C=C/c4ccccn4)n[nH]c3c2)CC1 | Ba/F3 TEL-VEGFR3 | cell growth, CCK-8 | – | – | GI50 | > 10 µM
CCn1nc(Cl)c2c1-c1cnc(N)c(c1)O[C@H](C)c1cc(F)ccc1-c1nn(C)cc1C2 | Aska-SS (ALK exon 2-17 deletion) | cell viability | – | – | Emax | 78.7%
Cn1ncc2cc(-c3cncc(Cl)c3N3CCC4(CCNC4=O)CC3)ccc21 | LS174T | gene expression, microarray, measured: MT1F mRNA | concentration not given, 4 h | baseline: untreated cells | log2 fold change | 1.27
CNS(=O)(=O)Nc1nccc(Cc2c(C)c3ccc(Oc4ncccc4F)cc3oc2=O)c1F | NCI-H2110 | cell viability | 7 days | – | IC50 | 0.719 µM
CC(C)C[C@H](NC(=O)[C@@H]1CCCN1C(=O)[C@H](CCCCN)NC(=O)[C@@H](N)CO)C(=O)N1CCC[C@H]1C(=O)N[C@@H](CCC(=O)O)C(=O)N[C@H](C(=O)N[C@H](C(=O)N[C@@H](CC(=O)O)C(=O)N[C@@H](CCC(=O)O)C(=O)N[C@@H](Cc1ccc(O)cc1)C(=O)NCC(=O)NCCOCCOCCOCCOCCOCCOCCOCCOCCOCCOCCOCCOCCC(=O)N[C@@H](CCCCNC(=O)CC[C@H](C(=O)O)N1CCN(CC(=O)O)CCN(CC(=O)O)CC1)C(=O)N1CCN(CCCN(C)c2ccc3nccc(C(=O)NCC(=O)N4CC(F)(F)C[C@H]4C#N)c3c2)CC1)[C@@H](C)O)C(C)C | HT-1080 expressing hFAP | binding, flow cytometry | 200 nM | – | positive cells | 62.1%
COCCCCCNc1nc(NCCCCCCN(C)C)c2cc(NC(=O)/C=C/CN(C)C)ccc2n1 | MCF7 | CellTiter-Glo | 3.125 µM, 48 h, unit not given | baseline: DMSO-treated cells | viability | 1.07
Cc1cc(C)nc(NC(=S)N2CCN(c3ccncc3)CC2)c1 | MT-3 (high PHGDH) | cell viability, CellTiter-Glo | 4 days | – | EC50 | > 100 µM
COC(=O)[C@@]1(C(C)C)C=C(C(=O)Nc2cccc(C(=O)Nc3ccc(Nc4nccc(-c5cccnc5)n4)c(C)c3)c2)C(=O)CC1 | HEK293 AP1 reporter | AP1 reporter gene, inhibitor | 3 µM, 6 h, unit not given, added: PMA | baseline: PMA alone | reporter activity | 0.346
O=C(NCCSc1ccc2c(/C=C/c3ccccn3)n[nH]c2c1)Nc1ccc(F)c(F)c1 | Ba/F3 TEL-VEGFR2 | cell growth, CCK-8 | – | – | GI50 | 0.15 µM
CCCCCCCCN(CCC(=O)Nc1ccccc1)C(=O)c1cc[nH]c1 | progeroid mouse fibroblasts, Lmna G609G/G609G | MTT | 2 µM, 72 h | baseline: vehicle-treated wild type | viability | 53 ± 13%
CNC(NN=Cc1ccc([N+](=O)[O-])o1)=[S+][Au-][Cl] | CAKI-1 | annexin V/PI flow cytometry | 15 µM, 72 h | – | cell fraction ANV+/PI− | 30.4 ± 0.5%
CCN(CC)CC(=O)Nc1cccc(-n2cc(-c3ccc4ccc(-c5cn(-c6cccc(NC(=O)CN(CC)CC)c6)nn5)cc4c3)nn2)c1 | RCC4 | PCR angiogenesis array, measured: FGF2 | 5 x IC50, 4 h, normoxia | baseline: untreated | fold regulation | 1.02
O=C(CNC(=O)c1ccc(Cl)c(C(F)(F)F)c1)Nc1ccc2[nH]nc(/C=C/c3ccccn3)c2c1 | Ba/F3 TEL-VEGFR3 | cell growth, CCK-8 | – | – | GI50 | 2.9 µM
CCOc1cncc(-c2ccc(NC(=O)C3(c4ccnc(NS(=O)(=O)C5CC5)n4)CCOCC3)nc2)n1 | NCI-H929 | cell growth or viability, ATP luminescence | 72 h | – | IC50 | 0.197 µM
CC(C)c1ccc(N(C)c2ccc3c(c2)OCC[C@H]3CNc2cnccc2C(=O)O)cc1 | GP2d | cell viability, CellTiter-Glo | 7 days | – | IC50 | 0.0262 µM
COC(=O)c1cc(NC2=NC(=O)C(=Cc3ccc(C)cc3)S2)ccc1OC(C)=O | MCF7 | GC-MS, measured: L-Tyrosine | 1 µM | baseline: DMSO | metabolite level | -0.02 fold change
CCC(=CCc1c(O)cc2c(c1O)C(=O)CC(c1ccc(O)cc1)O2)CC (stereo not drawn) | HeLa | annexin V/PI | 12 µM, 48 h | – | necrotic cells | 1.76 ± 0.05%
C=CC(=O)N1CCCC(n2c(=O)c3ncccc3n(Cc3ccc(Oc4ccccc4)cc3)c2=O)C1 (stereo not drawn) | Rec1 | measured: JUNB | concentration not given | baseline: untreated | log2 fold change | 0.48
COc1cc(N2CCN(C(=O)C3CCCN3)CC2)ccc1Nc1ncc(Cl)c(Nc2ccccc2P(C)(C)=O)n1 (stereo not drawn) | Ba/F3 EML4-ALK | annexin V flow cytometry | concentration not given, 1 h | – | early apoptotic cells | 3.5%
COc1ccccc1-c1ccncc1C(=O)Nc1nnc(OCc2ccc(Cl)cc2)s1 | PEO1 BRCA2-mutant ovarian cancer | – | 1.00 µM, added: olaparib 0.125 µM | – | colony survival | 0%
N#Cc1cccc(/C=C/C(=O)c2ccc(O)cc2)c1 | U-87 MG | measured: HLA-DRA | concentration not given | baseline: untreated | mRNA level | 0.041 fold
[Cl-].[Cl-].[Ru+2].c1ccc(-c2ccccn2)nc1.c1ccc(-c2ccccn2)nc1.c1ccc2cc3nc4c5cccnc5c5ncccc5c4nc3cc2c1 | SK-MEL-28 | resazurin | normoxia, added: red light 633 nm | baseline: dark EC50 over light EC50 | phototherapeutic index | 185
COC(=O)c1cc(NC2=NC(=O)C(=Cc3ccc(N(C)C)cc3)S2)ccc1OC(C)=O | MCF7 | GC-MS, measured: D-Arabinose | 1 µM | baseline: DMSO | metabolite level | -0.21 fold change
CO[C@@H]1[C@@H](OC(N)=O)[C@@H](O)[C@H](Oc2ccc3c(O)c(NC(=O)c4ccc(O)c(CC=C(C)C)c4)c(=O)oc3c2C)OC1(C)C | HCT-116 parental | – | 150 µM, replicate 2 | – | colony count | 17.5
Cc1ncsc1-c1ccc(C(C)NC(=O)C2CC(O)CN2C(=O)C(NC(=O)CCCCCCCCCCN2CCCC(Nc3ncc(Cl)c(Nc4ccccc4S(=O)(=O)C(C)C)n3)C2)C(C)(C)C)cc1 (stereo not drawn) | 22Rv1 | RNA-seq, measured: TNK1 mRNA | concentration not given | baseline: DMSO | log2 fold change | -1.38
CCCCCCc1cccc([C@H](O)C[C@H](CO)NC(=O)CCCCCCCCCCBr)c1 | HeLa | CERT activity, HPLC-MS/MS lipidomics, measured: hexosylceramide 24:1 | 1 µM, 24 h, not cell-number normalised | – | hexosylceramide level | 14700 pmol/sample and 23500 pmol/sample and 21700 pmol/sample

Repeated from above:
Structure (SMILES) | cell line | assay | setting | scale | measurement | result
Cn1ncc2cc(-c3cncc(Cl)c3N3CCC4(CCNC4=O)CC3)ccc21 | LS174T | gene expression, microarray, measured: MT1F mRNA | concentration not given, 4 h | baseline: untreated cells | log2 fold change | 1.27
CNS(=O)(=O)Nc1nccc(Cc2c(C)c3ccc(Oc4ncccc4F)cc3oc2=O)c1F | NCI-H2110 | cell viability | 7 days | – | IC50 | 0.719 µM
CC(C)C[C@H](NC(=O)[C@@H]1CCCN1C(=O)[C@H](CCCCN)NC(=O)[C@@H](N)CO)C(=O)N1CCC[C@H]1C(=O)N[C@@H](CCC(=O)O)C(=O)N[C@H](C(=O)N[C@H](C(=O)N[C@@H](CC(=O)O)C(=O)N[C@@H](CCC(=O)O)C(=O)N[C@@H](Cc1ccc(O)cc1)C(=O)NCC(=O)NCCOCCOCCOCCOCCOCCOCCOCCOCCOCCOCCOCCOCCC(=O)N[C@@H](CCCCNC(=O)CC[C@H](C(=O)O)N1CCN(CC(=O)O)CCN(CC(=O)O)CC1)C(=O)N1CCN(CCCN(C)c2ccc3nccc(C(=O)NCC(=O)N4CC(F)(F)C[C@H]4C#N)c3c2)CC1)[C@@H](C)O)C(C)C | HT-1080 expressing hFAP | binding, flow cytometry | 200 nM | – | positive cells | 62.1%
